Measured values collected from several papers.
A part holds a random share of what one study measured. Changes are numbered by the printed parent chain.

Series 1 — method: Sort-seq; refers to: YFP reporter; matrix: E. coli; setting: PhoQ-PhoP variant library; added: 10 µM Mg2+; baseline: high Mg2+ state; direction: higher = stronger signaling
Molecule: PhoQ, residues 284 288 289 292 302 303 AGHLVA
PhoP, residues 12 14 15 18 19 LHTVL (Escherichia coli, UniProt P23836) — fold induction: 2.98.
For PhoP, residues 12 14 15 18 19 TQAML (Escherichia coli, UniProt P23836): fold induction read 20.7.
For PhoP, residues 12 14 15 18 19 NQCAL (Escherichia coli, UniProt P23836): fold induction read 9.05.

Series 2 — method: DHFR PCA, deep sequencing; matrix: yeast; added: (+)-ABA 710 µM; baseline: wild-type fitted maximum; direction: higher = stronger binding
Target: ABI1, truncated, D143A, DHFR fusion (Arabidopsis thaliana)
Setting: methotrexate growth selection, single substitutions
Parent: PYL1, truncated, DHFR fusion (Arabidopsis thaliana); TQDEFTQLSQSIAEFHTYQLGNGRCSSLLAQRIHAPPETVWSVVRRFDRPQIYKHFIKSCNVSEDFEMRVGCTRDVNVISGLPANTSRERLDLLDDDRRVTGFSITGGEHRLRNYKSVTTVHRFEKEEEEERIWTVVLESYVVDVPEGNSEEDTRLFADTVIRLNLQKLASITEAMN; partner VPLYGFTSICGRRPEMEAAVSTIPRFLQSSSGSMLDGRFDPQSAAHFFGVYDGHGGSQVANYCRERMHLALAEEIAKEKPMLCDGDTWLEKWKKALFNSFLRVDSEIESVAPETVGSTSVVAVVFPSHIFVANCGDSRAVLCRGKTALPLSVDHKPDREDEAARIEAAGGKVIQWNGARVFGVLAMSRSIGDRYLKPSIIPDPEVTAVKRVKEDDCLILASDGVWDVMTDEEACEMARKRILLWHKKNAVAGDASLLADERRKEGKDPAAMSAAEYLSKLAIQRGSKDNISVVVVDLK
Under “relative binding score”, `V161C` is recorded as 89.3%.
`L91K`: “relative binding score” -2.16%.
`P50E`: “relative binding score” -7.7%.
For `L8M`, “relative binding score” read 96.9%.
`Q2V` — result for “relative binding score”: 110%.
For `R113A`, “relative binding score” read 105%.
For `M68E`, “relative binding score” read 94.5%.
`E109N` — result for “relative binding score”: 117%.
Under “relative binding score”, `H55I` is recorded as 101%.
`S104I`: “relative binding score” 65.6%.
For `K168P`, “relative binding score” read 6.57%.
Under “relative binding score”, `N114F` is recorded as 50.4%.
`I52D`: “relative binding score” 103%.
`S80Q` — result for “relative binding score”: 75.3%.
`R32I` — result for “relative binding score”: 95.6%.
For `R45L`, “relative binding score” read 5.32%.
Under “relative binding score”, `P37I` is recorded as 96.3%.

Series 3 — target: CEP164, C-terminal peptide (human); method: DHFR complementation, deep sequencing; matrix: yeast; baseline: wild type; direction: higher = weaker binding
Setting: single substitutions, model-inferred values
Parent: PDZK1, PDZ domain 2 (human); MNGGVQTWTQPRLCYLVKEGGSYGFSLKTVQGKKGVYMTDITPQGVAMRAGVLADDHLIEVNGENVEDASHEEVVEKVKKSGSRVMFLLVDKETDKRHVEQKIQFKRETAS; partner HNRVKVYRF
Under “binding free energy change”, `V99D` is recorded as -0.0471 kcal/mol.
For `Q6G`, “binding free energy change” read -0.0265 kcal/mol.
Under “binding free energy change”, `V74T` is recorded as 0.0477 kcal/mol.
Under “binding free energy change”, `H57Y` is recorded as -0.216 kcal/mol.
`Q31N`: “binding free energy change” 0.0885 kcal/mol.
`M38P` — result for “binding free energy change”: 1.87 kcal/mol.
Under “binding free energy change”, `K102S` is recorded as -0.114 kcal/mol.
`L53D` — result for “binding free energy change”: 0.93 kcal/mol.
`G20C` — result for “binding free energy change”: 0.235 kcal/mol.
`Y15M` — result for “binding free energy change”: 0.183 kcal/mol.
`Q104A`: “binding free energy change” -0.151 kcal/mol.
Under “binding free energy change”, `L58S` is recorded as -0.0873 kcal/mol.
For `K18Y`, “binding free energy change” read 0.606 kcal/mol.
For `A110M`, “binding free energy change” read -0.116 kcal/mol.
`V5D`: “binding free energy change” 0.0487 kcal/mol.
`V46I` — result for “binding free energy change”: 0.116 kcal/mol.

Series 4 — method: RNA Bind-n-Seq; molecule type: RNA; matrix: in vitro; tested at: 200 nM; setting: whole 134-nt RNA, ends assumed; added: 150 mM LiCl; baseline: input library; direction: higher = stronger binding; each molecule: 7-deaza-guanosine replaces G
Target: Ras GTPase-activating protein-binding protein 1, full length (G3BP1, Homo sapiens, UniProt Q13283)
UniProt Q13283, sequence (whole entry, looked up): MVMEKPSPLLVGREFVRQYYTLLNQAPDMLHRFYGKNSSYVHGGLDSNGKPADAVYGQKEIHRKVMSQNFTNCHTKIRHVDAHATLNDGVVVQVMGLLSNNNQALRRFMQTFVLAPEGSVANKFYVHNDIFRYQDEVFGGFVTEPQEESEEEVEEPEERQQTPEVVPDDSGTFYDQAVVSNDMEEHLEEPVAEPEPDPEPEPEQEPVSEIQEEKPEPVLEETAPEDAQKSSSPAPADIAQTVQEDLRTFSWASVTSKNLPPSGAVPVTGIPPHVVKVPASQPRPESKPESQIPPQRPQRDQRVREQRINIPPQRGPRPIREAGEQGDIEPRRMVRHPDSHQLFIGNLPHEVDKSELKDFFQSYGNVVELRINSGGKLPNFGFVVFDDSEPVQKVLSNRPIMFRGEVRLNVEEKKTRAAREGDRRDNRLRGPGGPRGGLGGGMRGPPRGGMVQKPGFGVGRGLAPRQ
Constant ends, left off below: GGGAGUUCUACAGUCCGACGAUC … UGGAAUUCUCGGGUGUCAAGG
The log2 enrichment of `CACAGACAACACGCACCCACACAGACACAGAGGGAAGGGGUUGGGAUGGGGACAGGGUGCACAGCAGCGCGGGGUAGGACCCCAGCCCCU` is reported as 0.498.
`UAACUUUAGAGGAGGAUCUGAUGGAUAUGGCAGUGGACGUGGAUUUGGGGAUGGCUAUAAUGGGUAUGGAGGAGGAUCUGGAGGUGGCAA` has a log2 enrichment of 0.222.
`CCUGUGCUACACAUCGUAUGUACCGAAUCGGGGAAAAAGGGGAAAGGGGUUUUUUUGGGGAAAGUAUUAUGUUACGCCGUUCGGAUCUGC` has a log2 enrichment of 0.952.
The log2 enrichment of `ACCAUGCAGGUGGGCAUCUUUGGGAAGAAAGGCAAGGGGGGGAUAGGGAGGGGGGUAACACUUUGGGAACAGGUGGUCCCAGGUCGUUUC` is reported as 0.34.
`GUCCUGUGCUACACAUCGUAUGUACCGAAUCGGGAAAAAGGGAAAAAAAGGGUUUGGGAAAGUAUUAUGUUACGCCGUUCGGAUCUGCAC` has a log2 enrichment of -2.18.
The log2 enrichment of `GUCCUGUGCUACACAUCGUAUGUACCGAAUCGGGGUUUUUGGGGAAAGGGGAAAGGGGAAAGUAUUAUGUUACGCCGUUCGGAUCUGCAC` is reported as 0.311.
`CACAGACAACACGCACCCACACAGACACAAAGGGAAGGGGUUGGGAUGGGGACAGGGUGCACAGCAGGGCGGGGUAGGACCCCAGCCCCU` has a log2 enrichment of -0.292.
For `CUCAAGUCCUGUGCUACACAUCGUAUGUACCGAAUCGGGGAGGGAGGGGAGGGAAAGUAUUAUGUUACGCCGUUCGGAUCUGCACUUCCA`, the log2 enrichment was -0.322.
With `UACAGACAACACGCACCCACACAGACACAGAGGGAAGGGGUUGGGAUGGGGACAGGGUGCACAGCAGGGCGGGGUAGGACCCCAGCCCCU` the log2 enrichment was 0.0974.
With `UGUGCUACACAUCGUAUGUACCGAAUCGGGGAAAAAAAGGGAAAAAAAGGGGAAAAAAAGGGAAAGUAUUAUGUUACGCCGUUCGGAUCU` the log2 enrichment was 0.468.
For `UAACUUUAGAGGAGGAUCUGAUGGAUAUGGCAGUGGACGUGGAUUUGGGGAUGGCUAUAAUGGGUAUGGAGGAGGACCUGGACGUGGCAA`, the log2 enrichment was -0.16.

Excerpt of the above (series 4):
With `UGUGCUACACAUCGUAUGUACCGAAUCGGGGAAAAAAAGGGAAAAAAAGGGGAAAAAAAGGGAAAGUAUUAUGUUACGCCGUUCGGAUCU` the log2 enrichment was 0.468.
The log2 enrichment of `ACCAUGCAGGUGGGCAUCUUUGGGAAGAAAGGCAAGGGGGGGAUAGGGAGGGGGGUAACACUUUGGGAACAGGUGGUCCCAGGUCGUUUC` is reported as 0.34.
The log2 enrichment of `GUCCUGUGCUACACAUCGUAUGUACCGAAUCGGGGUUUUUGGGGAAAGGGGAAAGGGGAAAGUAUUAUGUUACGCCGUUCGGAUCUGCAC` is reported as 0.311.
`CACAGACAACACGCACCCACACAGACACAAAGGGAAGGGGUUGGGAUGGGGACAGGGUGCACAGCAGGGCGGGGUAGGACCCCAGCCCCU` has a log2 enrichment of -0.292.
